Values quoted from earlier work as cited in several papers.
Each line is one published result; not all experiments were run side by side. ± marks the error that the study gave.

The GI50 of `O=C1c2ccccc2-c2c1c1ccc([N+](=O)[O-])cc1c(=O)n2C[C@H](O)CO` is reported as 157 nM (CNS SF-539; cell growth).
For `COc1cc(Nc2c(C#N)cnc3cc(OCCCN4CCN(C)CC4)c(OC)cc23)c(Cl)cc1Cl`, “log2 fold change” read 1.92 (hiPSC-derived cardiomyocytes; contractility; concentration not given, 72 h, at effective concentration; reference: baseline).
`CO[C@@H]1[C@@H]2OP(=O)(O)OC[C@H]2O[C@H]1n1c(Sc2ccc(Cl)cc2)nc2c(N)ncnc21`: “Km or Ki” 5840 nM (PDE10; cyclic nucleotide hydrolysis, substrate or inhibitor, isothermal titration calorimetry).
`C[C@@]12CC=C3c4ccc(O)cc4CC[C@@H]3[C@H]1CC[C@H]2O` gave an EC50 of 296 nM (HT-22; cell protection; together with: iodoacetic acid 20 µM).
With `O=C1c2ccccc2-c2c1c1ccc([N+](=O)[O-])cc1c(=O)n2CCCN1CCOCC1` the GI50 was 380 nM (melanoma UACC-62; cell growth).
For `CC(C)(C)c1nc(-c2cccc(NS(=O)(=O)c3c(F)cccc3F)c2F)c(-c2ccnc(N)n2)s1`, “beating cessation concentration” read 100 µM (hiPSC-derived cardiomyocytes; 72 h, tested 0 to 100 µM).
`O=C1c2ccccc2-c2c1c1ccc([N+](=O)[O-])cc1c(=O)n2CCCn1ccnc1` gave a GI50 of 12 nM (melanoma UACC-62; cell growth).
Under “log2 fold change”, `COc1cccc2c1C(=O)c1c(O)c3c(c(O)c1C2=O)C[C@@](O)(C(=O)CO)C[C@@H]3O[C@H]1C[C@H](N)[C@H](O)[C@H](C)O1` is recorded as 0.6 (hiPSC-derived cardiomyocytes; contractility; concentration not given, 72 h, at effective concentration; reference: baseline).
With `Cc1ccccc1-c1cc(N2CCN(C)CC2)ncc1N(C)C(=O)C(C)(C)c1cc(C(F)(F)F)cc(C(F)(F)F)c1` the Tmax was 5.98 h (healthy volunteers, plasma; oral, 450 mg, single dose, given alone).
For `CC[C@H](C)CCCCC(=O)N[C@@H](CCN)C(=O)N[C@H](C(=O)N[C@@H](CCN)C(=O)N[C@H]1CCNC(=O)[C@H]([C@@H](C)O)NC(=O)[C@H](CCN)NC(=O)[C@H](CCN)NC(=O)[C@H](CC(C)C)NC(=O)[C@@H](Cc2ccccc2)NC(=O)[C@H](CCN)NC1=O)[C@@H](C)O`, “peripheral volume of distribution” read 22.3 L (human patients; intravenous, dose not given, two-compartment population PK model).
For `O=C(O)CNC(=O)c1ccccc1[131I]`, “percent injected dose” read 0.2 ± 0.1 %ID (normal rat, heart; 10 min, together with: co-injected 99mTc-1).
`O=C1c2cccc3c2[C@H](CCC3)CN1[C@@H]1CN2CCC1CC2` has a Tmax of 4.69 h (healthy volunteers; oral, 0.75 mg single dose, mean, together with: netupitant 450 mg).

A few entries again:
`O=C1c2ccccc2-c2c1c1ccc([N+](=O)[O-])cc1c(=O)n2CCCn1ccnc1` gave a GI50 of 12 nM (melanoma UACC-62; cell growth).
Under “log2 fold change”, `COc1cccc2c1C(=O)c1c(O)c3c(c(O)c1C2=O)C[C@@](O)(C(=O)CO)C[C@@H]3O[C@H]1C[C@H](N)[C@H](O)[C@H](C)O1` is recorded as 0.6 (hiPSC-derived cardiomyocytes; contractility; concentration not given, 72 h, at effective concentration; reference: baseline).
